Published values from different studies.
Parts stem from different laboratories: compare values within a part only.
UniProt Q9C0B0, sequence (30-357, looked up): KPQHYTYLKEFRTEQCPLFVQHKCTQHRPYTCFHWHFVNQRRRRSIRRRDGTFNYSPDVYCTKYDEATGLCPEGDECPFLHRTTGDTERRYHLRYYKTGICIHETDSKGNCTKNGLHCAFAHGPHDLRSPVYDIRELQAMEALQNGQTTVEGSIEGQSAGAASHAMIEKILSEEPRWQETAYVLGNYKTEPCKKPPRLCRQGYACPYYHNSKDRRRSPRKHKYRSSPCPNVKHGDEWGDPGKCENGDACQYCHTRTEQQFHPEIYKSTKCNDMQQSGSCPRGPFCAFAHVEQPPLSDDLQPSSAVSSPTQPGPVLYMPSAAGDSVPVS

Series 1
Target: Ras GTPase-activating protein-binding protein 1, RRM domain (G3BP1, Homo sapiens, UniProt Q13283)
UniProt Q13283, sequence (whole entry, looked up): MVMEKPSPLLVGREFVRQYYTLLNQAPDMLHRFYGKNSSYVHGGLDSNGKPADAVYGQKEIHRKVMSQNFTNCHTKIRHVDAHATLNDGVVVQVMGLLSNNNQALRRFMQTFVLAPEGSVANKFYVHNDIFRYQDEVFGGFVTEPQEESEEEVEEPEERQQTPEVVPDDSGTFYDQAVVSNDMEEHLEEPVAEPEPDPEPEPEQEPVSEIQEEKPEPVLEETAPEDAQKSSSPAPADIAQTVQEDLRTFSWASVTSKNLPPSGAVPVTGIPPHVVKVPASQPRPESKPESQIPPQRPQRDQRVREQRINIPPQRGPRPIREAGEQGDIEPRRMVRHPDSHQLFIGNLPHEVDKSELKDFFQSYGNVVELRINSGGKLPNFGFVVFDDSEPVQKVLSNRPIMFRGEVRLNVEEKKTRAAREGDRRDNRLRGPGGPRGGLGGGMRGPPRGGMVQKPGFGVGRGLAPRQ
Technique: RNA Bind-n-Seq
Form: RNA
Sample: in vitro
Tested at: 1 µM
Setting: whole 134-nt RNA, ends assumed
With: 150 mM KCl
Relative to: input library
Direction: higher = stronger binding
All sequences stand within: GGGAGUUCUACAGUCCGACGAUC … UGGAAUUCUCGGGUGUCAAGG
For `UAUUCCAAUGUCUGUGGGAAUAAUUGACACAAGGACGAAUCCAAGCCAGUUAAAUGCGGUUGAAUUUCUGUGGGACCCAGCAAAACGCAC`, the log2 enrichment was 0.216.
`UGGCCCUGGUGGCAUGCGGGGAGGAAGAGGUGGCCUCAUGGAUCGUGGUGGUCCCGGUGGAAUGUUCAGAGGUGGCCGUCGUGGAGACAG` has a log2 enrichment of 1.09.
With `GUCCUGUGCUACACAUCGUAUGUACCGAAUCGGGUUUUUGGGUUUUUGGGGUUUUUGGAAAGUAUUAUGUUACGCCGUUCGGAUCUGCAC` the log2 enrichment was -0.182.
`CCUCAAGUCCUGUGCUACACAUCGUAUGUACCGAAUCGGAAGGAAGGGGAAGGAAAGUAUUAUGUUACGCCGUUCGGAUCUGCACUUCCA` has a log2 enrichment of -0.221.
`UGGGAGGUGGAUUUUGUUUAUUUUUUUAGCUCAUUUCCAGGGGUGGGAAUUUUUUUUUAAUAUGUGUCAUGAAUAAAGUUGUUUAUGAAA` gave a log2 enrichment of 1.3.
With `UGGGAGGUGGAUUUUGUUUAUUUUUUUAGCUCAUUUCCUGGGGUGGGAAUUUUUUUUUAAUAUGUGUCAUGAAUAAAGUUGUUUUUGAAA` the log2 enrichment was 1.79.

Series 2
Target: RNA binding protein fox-1 homolog 2, RRM domain, GST-SBP tag (RBFOX2, Homo sapiens, UniProt O43251-10, residues 100-194)
Technique: RNA Bind-n-Seq
Form: RNA
Sample: in vitro
Tested at: 365 nM
Setting: natural RNA segment, single round, ends assumed
Relative to: no-protein control
Direction: higher = stronger binding
All sequences stand within: GGGAGUUCUACAGUCCGACGAUC … UGGAAUUCUCGGGUGCCAA
Residues (chain): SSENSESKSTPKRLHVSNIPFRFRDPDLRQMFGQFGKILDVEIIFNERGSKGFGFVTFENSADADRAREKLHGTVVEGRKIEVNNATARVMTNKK
`AGCCUCAAAGCUGCUGUACCUGCACAUGGUCCUGAGAACAUCUCUCUAGGCCUGUACCACACCUCUCUGCCUGUAGAACCUGUGAGAUCAUUGCCUGUGGCCUCUGUCAC` — result for “RBNS enrichment (R)”: 0.41.
For `CACCUAGACAAUAACUUAGUUUUGCAUGCUUACAUUGGUCAUCCUUUUUAUGUACAUCAUUAAUCUUCUGACAAGAAGCUGAAGUAGCACCACAGUCCAUAAUAUAUCAG`, “RBNS enrichment (R)” read 16.1.
For `ACAUAACUAAGGAAUGCCUAACUAAUGGAAACUUAAGUUCCUUCUAGCCAUUAAAACAGAGAGAAGAUCAAUUUAGAUCCCGGAACACUGUAUUUGAAAAAUAAUCUUCC`, “RBNS enrichment (R)” read 0.476.
`UGUCCUAGGGCGGAGCCAGGCGGUCCUGAGGGGGAGAUGAAUCCUUAGAGGAGCGCUGUCCCUAUCCCUUGCUCCUUCUGGCCGGUCCGCAUUUCUGUUCACUAACCCCA` — result for “RBNS enrichment (R)”: 0.28.
Under “RBNS enrichment (R)”, `UCUCUCCCGACCCUGUUUGUGGUGUGUGCUGGCCUAUCAGGAUCUGGUUAGCCUUUGGAAUUUUUGUUGAUGAAAUCUCAAUACAUAAGGCGUCAACAGGGGGCUGGAGA` is recorded as 0.362.
For `CUGCCCAGGAGUAGAAGCCUGUUAGCUGCCUCCAUGGGUUUUAUACAGCUCUUCUUGCUUAGUGCGGAACCCAGGGAGCUGCUCAGACUUCCACCAAAGCAAAUCUGGCU`, “RBNS enrichment (R)” read 0.251.
`UGAUGUUUUCAUAAUGUUUAAGGGACCCACUGCAAGAAGCUUGCUGCCUCCUUUUAAUUGUAUUCAUUUAGAUUUUGAUUUUCCAUGUUAAGAAGGUGAGGUCCAUGUUG`: “RBNS enrichment (R)” 0.436.
`GUGUCUACAGGCCAUCACGUGGGGAGGCGCACCAGGCGACAGAGGAUGUGGUGGCCUUCCUCCUAGGACUGAUUGGCGUCGCCGUCCUAACCCAGCUGUGGAGUUUUUGU`: “RBNS enrichment (R)” 0.666.

Single results of other studies
With `PhoQ, residues 284 288 289 292 302 303 SSLVEF` the fold induction was 3 (PhoP, residues 12 14 15 18 19 FWNTL (Escherichia coli, UniProt P23836); Sort-seq, refers to: YFP reporter; E. coli; PhoQ-PhoP variant library, with: 10 µM Mg2+; relative to: high Mg2+ state, higher = stronger signaling).
For `GGGAGUUCUACAGUCCGACGAUCCUCUAUGGGCCUCGCAGAGUUGAAAUAAUGGAAGAGGAAAGUGAACAGUAAUCUUCAUUUCCGUAUUUAUGCUCCGAUGUGAAAAUAAAUGUUAUUUGUUGAUCAUUUCUAUAAUCCAGACAACAGAGGAUUGAGCAUCA`, the bound/input enrichment was 0.3 ratio (RING finger protein unkempt homolog, zinc fingers 1-6, SBP tag (UNK, Homo sapiens, UniProt Q9C0B0, residues 30-357); RNA Bind-n-Seq; RNA, in vitro; 100 nM, RNA with constant flanks, ends assumed; relative to: input RNA pool, higher = stronger binding).
